Experimental data collected from several papers.
A part holds a random share of what one study measured.

Block 1 — technique: universal PBM; form: double-stranded DNA, one strand shown; medium: in vitro; concentration: not given; reading: higher = stronger binding
Target: Sal-like protein 4, full length isoform B (SALL4, Homo sapiens, UniProt Q9UJQ4-2, residues 1-616)
Setting: 8-mer, flanks averaged, mean of replicates
Target sequence (chain): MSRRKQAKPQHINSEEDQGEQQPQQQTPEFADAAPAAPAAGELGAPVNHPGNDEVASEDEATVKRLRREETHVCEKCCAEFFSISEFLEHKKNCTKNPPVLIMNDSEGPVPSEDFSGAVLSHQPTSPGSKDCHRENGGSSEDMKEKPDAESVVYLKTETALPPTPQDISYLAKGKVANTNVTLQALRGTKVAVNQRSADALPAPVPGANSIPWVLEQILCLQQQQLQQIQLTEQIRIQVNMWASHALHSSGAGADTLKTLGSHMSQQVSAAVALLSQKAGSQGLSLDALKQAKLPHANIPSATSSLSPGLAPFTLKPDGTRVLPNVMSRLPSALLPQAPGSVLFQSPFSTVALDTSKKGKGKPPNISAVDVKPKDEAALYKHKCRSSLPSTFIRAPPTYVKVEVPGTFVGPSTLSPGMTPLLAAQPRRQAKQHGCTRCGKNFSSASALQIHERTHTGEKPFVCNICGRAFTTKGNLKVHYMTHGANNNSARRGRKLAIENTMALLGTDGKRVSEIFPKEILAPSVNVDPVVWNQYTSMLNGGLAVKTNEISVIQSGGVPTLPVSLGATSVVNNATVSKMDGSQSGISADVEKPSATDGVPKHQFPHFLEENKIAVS
Strand	E-score
AATGCATG	0.125
AAGATGCT	0.00115
AAAATCGC	0.113
ACGCTGCT	-0.0942

Block 2 — technique: RNA Bind-n-Seq; form: RNA; medium: in vitro; concentration: 1 µM; setting: whole 134-nt RNA, ends assumed; together with: 150 mM KCl; relative to: input library; reading: higher = stronger binding
Target: Ras GTPase-activating protein-binding protein 1, C-terminal RGG region (G3BP1, Homo sapiens, UniProt Q13283)
UniProt Q13283, sequence (whole entry, looked up): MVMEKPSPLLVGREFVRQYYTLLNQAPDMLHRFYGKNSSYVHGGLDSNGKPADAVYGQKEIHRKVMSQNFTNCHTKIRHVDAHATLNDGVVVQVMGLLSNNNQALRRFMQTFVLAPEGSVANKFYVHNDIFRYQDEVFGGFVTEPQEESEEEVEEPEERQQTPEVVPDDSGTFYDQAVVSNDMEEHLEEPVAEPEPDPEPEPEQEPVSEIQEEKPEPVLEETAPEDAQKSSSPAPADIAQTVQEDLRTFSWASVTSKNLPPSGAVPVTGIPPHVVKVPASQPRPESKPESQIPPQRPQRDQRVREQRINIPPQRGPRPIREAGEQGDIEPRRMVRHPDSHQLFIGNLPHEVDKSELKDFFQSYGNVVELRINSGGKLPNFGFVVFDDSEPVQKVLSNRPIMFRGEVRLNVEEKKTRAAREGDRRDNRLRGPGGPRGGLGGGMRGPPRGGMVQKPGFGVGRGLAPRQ
Strand	log2 enrichment
GGGAGUUCUACAGUCCGACGAUCACCAUGCAGGUGGGCAUCUUUGGGAAGUGGGAAAAGGGGGGGAUAGGGAGGGGGGUAACACUUUGGGAACAGGUGGUCCCAGGUCGUUUCUGGAAUUCUCGGGUGUCAAGG	-0.665
GGGAGUUCUACAGUCCGACGAUCCACAAAAAACACGCACCCACACAGACACAGAGGGAAGGGGUUGGGAUGGGGACAGGGUGCACAGCAGGGCGGGGUAGGACCCCAGCCCCUUGGAAUUCUCGGGUGUCAAGG	-0.326
GGGAGUUCUACAGUCCGACGAUCUCCUGUGCUACACAUCGUAUGUACCGAAUCGGGUUUUUUUGGGAAAAAGGGUUUUUGGGAAAGUAUUAUGUUACGCCGUUCGGAUCUGCAUGGAAUUCUCGGGUGUCAAGG	-0.69

Block 3 — technique: aptamer microarray, sandwich; form: DNA with 2'F-ANA; medium: in vitro; concentration: 200 nM; together with: Cy3 exosite-II aptamer, 400 nM; reading: higher = stronger binding
Target: Prothrombin, mature alpha-thrombin (F2, Homo sapiens, UniProt P00734)
Setting: whole 15-mer aptamer, many near background
Strand	mean fluorescence intensity
GGTTGGTGTGGTTGG (2'F-ANA at 3 8 9 12 13 14)	686 a.u.
GGTTGGTGTGGTTGG (2'F-ANA at 5 7 8 9 10 11 14 15)	49.2 a.u.
GGTTGGTGTGGTTGG (2'F-ANA at 5 9 10 11 12)	51.4 a.u.
GGTTGGTGTGGTTGG (2'F-ANA at 1 2 3 4 5 9 10 14)	95.8 a.u.

Single results of other studies
Substance	target	test	system	conditions	scale	endpoint	value
PhoQ, residues 284 288 289 292 302 303 SVHLDV	PhoP, residues 12 14 15 18 19 LHHVQ (Escherichia coli, UniProt P23836)	Sort-seq, item: YFP reporter	E. coli	PhoQ-PhoP variant library, together with: 10 µM Mg2+	relative to: high Mg2+ state, higher = stronger signaling	fold induction	0.73

Repeated from above (block 1):
Strand	E-score
AAGATGCT	0.00115
AAAATCGC	0.113
